Experimental data of several laboratories.
Lines come from different studies, so protocols differ. ± marks the error that the study gave.
Uncharacterized protein: Uncharacterized protein (Trypanosoma brucei brucei, UniProt Q386Q8)
TDP1: Tyrosyl-DNA phosphodiesterase 1 (TDP1, Homo sapiens, UniProt Q9NUW8)
UniProt Q9NUW8, sequence (whole entry, looked up): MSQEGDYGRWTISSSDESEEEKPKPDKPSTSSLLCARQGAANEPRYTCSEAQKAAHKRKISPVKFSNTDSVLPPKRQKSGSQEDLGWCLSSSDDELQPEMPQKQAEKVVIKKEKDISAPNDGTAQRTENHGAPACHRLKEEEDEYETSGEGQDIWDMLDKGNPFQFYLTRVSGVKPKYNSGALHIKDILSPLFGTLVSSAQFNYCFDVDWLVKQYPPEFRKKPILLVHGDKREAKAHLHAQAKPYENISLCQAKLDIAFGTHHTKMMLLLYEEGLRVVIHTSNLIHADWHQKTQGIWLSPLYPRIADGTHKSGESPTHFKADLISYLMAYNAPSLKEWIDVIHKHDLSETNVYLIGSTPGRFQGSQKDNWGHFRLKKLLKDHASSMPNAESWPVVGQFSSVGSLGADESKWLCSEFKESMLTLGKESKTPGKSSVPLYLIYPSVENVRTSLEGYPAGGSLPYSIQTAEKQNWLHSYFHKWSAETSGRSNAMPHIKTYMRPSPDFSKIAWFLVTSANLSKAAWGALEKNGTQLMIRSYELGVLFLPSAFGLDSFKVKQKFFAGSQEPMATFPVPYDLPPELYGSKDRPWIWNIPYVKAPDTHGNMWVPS
ppa: Inorganic pyrophosphatase (ppa, Escherichia coli, UniProt P0A7A9)
UniProt P0A7A9, sequence (whole entry, looked up): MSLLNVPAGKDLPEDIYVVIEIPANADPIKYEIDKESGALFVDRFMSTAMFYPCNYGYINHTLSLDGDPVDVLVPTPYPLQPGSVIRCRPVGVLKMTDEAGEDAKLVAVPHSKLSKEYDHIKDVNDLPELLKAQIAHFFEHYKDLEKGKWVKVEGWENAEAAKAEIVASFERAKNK
C3ar1: C3a anaphylatoxin chemotactic receptor (C3ar1, Mus musculus, UniProt O09047)
UniProt O09047, sequence (whole entry, looked up): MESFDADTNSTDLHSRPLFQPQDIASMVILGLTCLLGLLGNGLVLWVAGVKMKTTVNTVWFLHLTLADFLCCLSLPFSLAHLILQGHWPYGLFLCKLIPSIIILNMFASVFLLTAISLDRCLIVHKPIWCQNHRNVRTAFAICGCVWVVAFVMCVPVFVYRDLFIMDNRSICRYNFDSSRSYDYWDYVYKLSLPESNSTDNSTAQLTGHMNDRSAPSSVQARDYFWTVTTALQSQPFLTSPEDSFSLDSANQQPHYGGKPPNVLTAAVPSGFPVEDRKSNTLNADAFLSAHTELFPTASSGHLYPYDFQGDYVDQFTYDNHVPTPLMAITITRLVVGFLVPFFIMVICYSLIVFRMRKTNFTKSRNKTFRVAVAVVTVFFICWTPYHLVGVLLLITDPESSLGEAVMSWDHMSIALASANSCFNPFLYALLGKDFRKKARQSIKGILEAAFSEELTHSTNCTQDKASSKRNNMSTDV
UniProt Q06180, sequence (whole entry, looked up): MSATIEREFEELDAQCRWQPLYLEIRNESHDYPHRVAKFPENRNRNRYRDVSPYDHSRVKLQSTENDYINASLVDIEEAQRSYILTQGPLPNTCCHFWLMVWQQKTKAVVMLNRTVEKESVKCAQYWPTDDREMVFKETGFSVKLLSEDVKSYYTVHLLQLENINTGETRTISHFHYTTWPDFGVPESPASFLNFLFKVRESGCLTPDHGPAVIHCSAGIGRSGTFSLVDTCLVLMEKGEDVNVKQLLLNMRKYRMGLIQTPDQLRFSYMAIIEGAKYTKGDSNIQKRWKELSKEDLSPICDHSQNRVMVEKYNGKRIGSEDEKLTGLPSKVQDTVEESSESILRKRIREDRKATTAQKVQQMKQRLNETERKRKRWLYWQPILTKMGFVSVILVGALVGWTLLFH
UniProt P41146, sequence (whole entry, unmodified, looked up): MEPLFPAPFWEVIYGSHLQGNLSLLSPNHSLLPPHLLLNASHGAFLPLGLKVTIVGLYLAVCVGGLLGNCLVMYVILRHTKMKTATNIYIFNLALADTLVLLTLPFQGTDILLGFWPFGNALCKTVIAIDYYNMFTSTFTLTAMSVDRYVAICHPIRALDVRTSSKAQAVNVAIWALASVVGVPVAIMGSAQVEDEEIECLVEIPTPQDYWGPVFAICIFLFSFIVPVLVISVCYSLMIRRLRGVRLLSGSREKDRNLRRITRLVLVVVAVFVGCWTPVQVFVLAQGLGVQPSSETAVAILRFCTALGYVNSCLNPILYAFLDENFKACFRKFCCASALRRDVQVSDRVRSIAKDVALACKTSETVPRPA
UniProt Q9UKP6, sequence (whole entry, looked up): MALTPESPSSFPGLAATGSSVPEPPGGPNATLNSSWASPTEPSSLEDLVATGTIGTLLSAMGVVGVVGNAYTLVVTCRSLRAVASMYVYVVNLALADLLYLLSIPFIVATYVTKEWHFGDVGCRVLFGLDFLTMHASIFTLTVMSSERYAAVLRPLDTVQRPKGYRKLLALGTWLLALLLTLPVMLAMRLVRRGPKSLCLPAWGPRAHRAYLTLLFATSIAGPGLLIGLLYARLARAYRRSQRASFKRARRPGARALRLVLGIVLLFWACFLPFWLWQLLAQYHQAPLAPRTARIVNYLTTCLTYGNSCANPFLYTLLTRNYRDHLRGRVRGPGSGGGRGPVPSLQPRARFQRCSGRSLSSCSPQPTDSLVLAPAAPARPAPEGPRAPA
UniProt Q15391, sequence (whole entry, unmodified, looked up): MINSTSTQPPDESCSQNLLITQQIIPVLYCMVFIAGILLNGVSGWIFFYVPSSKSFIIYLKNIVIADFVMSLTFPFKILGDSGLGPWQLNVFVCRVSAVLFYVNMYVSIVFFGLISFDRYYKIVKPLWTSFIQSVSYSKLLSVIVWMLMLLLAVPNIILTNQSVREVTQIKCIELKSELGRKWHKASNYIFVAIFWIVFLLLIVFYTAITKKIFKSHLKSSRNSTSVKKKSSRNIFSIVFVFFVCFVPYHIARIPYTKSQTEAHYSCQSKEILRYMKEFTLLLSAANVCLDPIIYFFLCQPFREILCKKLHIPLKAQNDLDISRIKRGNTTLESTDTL
UniProt P22310, sequence (whole entry, looked up): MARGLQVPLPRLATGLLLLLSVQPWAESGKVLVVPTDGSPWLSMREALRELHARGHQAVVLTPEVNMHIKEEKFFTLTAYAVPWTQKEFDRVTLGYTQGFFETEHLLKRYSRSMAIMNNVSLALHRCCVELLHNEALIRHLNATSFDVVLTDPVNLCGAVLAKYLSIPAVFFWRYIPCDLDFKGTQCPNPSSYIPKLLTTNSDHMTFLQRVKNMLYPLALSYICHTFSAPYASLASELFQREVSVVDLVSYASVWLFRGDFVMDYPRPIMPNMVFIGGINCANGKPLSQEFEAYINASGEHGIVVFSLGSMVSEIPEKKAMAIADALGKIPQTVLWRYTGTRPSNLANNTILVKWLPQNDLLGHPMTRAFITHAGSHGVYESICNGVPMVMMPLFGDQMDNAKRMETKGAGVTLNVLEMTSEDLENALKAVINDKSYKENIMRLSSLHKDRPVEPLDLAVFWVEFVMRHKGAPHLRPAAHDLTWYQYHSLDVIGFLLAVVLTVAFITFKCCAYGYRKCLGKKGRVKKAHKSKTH

With `O=c1ccn([C@@H]2O[C@H](COP(=O)(O)CP(=O)(O)O)[C@@H](O)[C@H]2O)c(=S)[nH]1` the EC50 was 0.165 µM (P2Y purinoceptor 14 (P2RY14, Homo sapiens, UniProt Q15391, V93G); calcium mobilisation, agonist; cells with Gαqi5; receptor mutant V93G).
`Cc1ccc(C)c(C2=Nn3c(nnc3C3CCCCC3)SC2C)c1` (centres unmarked) has an IC50 of 256 µM (Uncharacterized protein; inhibitor, coupled colorimetric; Trypanosoma brucei).
`Cc1nn(-c2cccc(N)c2)c(=O)c2cnc(Nc3ccc(N4CCNCC4)cc3)nc12` gave an IC50 of over 10 µM (Proto-oncogene tyrosine-protein kinase Src, N1 isoform (SRC, Homo sapiens, UniProt P12931); inhibitor, SelectScreen kinase).
`COc1ccc(Nc2nc(Cl)c(C=NOCc3ccc(-c4nc5cc(-c6ccccc6)ccn5c4Nc4ccc(C(=O)O)cc4)cc3)s2)cc1` has an inhibition of 84.9% (TDP1; enzyme activity, inhibitor; 100 µM, unpurified compound).
`COc1ccc(OC)c(C2=Nn3c(nnc3-c3ccc(Cl)cc3)SC2)c1` has an IC50 of over 100 µM (ppa; enzyme activity, inhibitor).
`CC(=O)OC1CCC2(C)C(CCC3(C)C2CC=C2C4C(C)C(C)CCC4(C(=O)O)CCC23C)C1(C)C` (centres unmarked) has a Ki of 0.638 µM (UDP-glucuronosyltransferase 1A4 (UGT1A4, Homo sapiens, UniProt P22310); enzyme activity, inhibitor; human, liver microsomes).
`CC(C)C[C@H](NC(=O)[C@H](C)NC(=O)[C@H](CO)NC(=O)[C@@H]1CCCN1C(=O)[C@@H]1CCCN1C(=O)[C@H](CCC(N)=O)NC(=O)[C@H](CC(C)C)NC(=O)[C@@H](N)[C@@H](C)O)C(=O)N[C@@H](CCCNC(=N)N)C(=O)N[C@@H](CCCNC(=N)N)C(=O)N[C@@H](CCCNC(=N)N)C(=O)N[C@@H](Cc1c[nH]cn1)C(=O)N[C@@H](Cc1ccc(O)cc1)C(=O)N[C@@H](Cc1c[nH]cn1)C(=O)N[C@@H](Cc1c[nH]cn1)C(=O)N[C@@H](C)C(=O)N[C@@H](CC(C)C)C(=O)N1CCC[C@H]1C(=O)N1CCC[C@H]1C(=O)N[C@@H](CO)C(=O)N[C@@H](CCCNC(=N)N)C(=O)O` gave an EC50 of 0.457 µM (C3ar1; beta-arrestin 1 recruitment, agonist, NanoBiT; mouse).
With `O=C(NCCCN1CCC2(CC1)OCc1ccccc12)C1CCCN1Cc1ccccc1` (centres unmarked) the Ki was 0.0003 µM (Nociceptin receptor (OPRL1, Homo sapiens, UniProt P41146, I219A)).
For `Cn1c(=O)n(C2CCC(=O)NC2=O)c2ccc(C3CCN(CC(=O)Nc4cccc(CS(=O)(=O)N5CC[C@H](Nc6cccc(-c7sc(C(=O)O)c(OCC(=O)O)c7Cl)c6)CC5(C)C)c4)CC3)cc21` (some centres unmarked), the DC50 was 0.005 µM (Tyrosine-protein phosphatase non-receptor type 2 (Ptpn2, Mus musculus, UniProt Q06180); degrader, Western blot; B16-F10; 24 h).
`CC(C)(C)S(=O)(=O)c1ccccc1C=NOCc1ccc(-c2nc3cc(-c4ccccc4)ccn3c2Nc2ccc(C(=O)O)cc2)cc1` gave an inhibition of 71.4% (TDP1; enzyme activity, inhibitor; 100 µM, unpurified compound).
`Cc1n[nH]c(C)c1C(=O)CC1(O)C(=O)Nc2cc(Cl)cc(Cl)c21` (centres unmarked) gave an IC50 of over 100 µM (ppa; enzyme activity, inhibitor).
`CC(C)C[C@H](NC(=O)[C@@H](N)[C@@H](C)O)C(=O)N[C@@H](CCC(N)=O)C(=O)N1CCC[C@H]1C(=O)N1CCC[C@H]1C(=O)N[C@@H](C)C(=O)N[C@@H](CO)C(=O)N[C@@H](CO)C(=O)N[C@@H](CCCNC(=N)N)C(=O)N[C@@H](CCCNC(=N)N)C(=O)N[C@@H](CCCNC(=N)N)C(=O)N[C@@H](Cc1c[nH]cn1)C(=O)N[C@@H](Cc1ccccc1)C(=O)N[C@@H](Cc1c[nH]cn1)C(=O)N[C@@H](Cc1c[nH]cn1)C(=O)N[C@@H](C)C(=O)N[C@@H](CC(C)C)C(=O)N1CCC[C@H]1C(=O)N1CCC[C@H]1C(=O)N[C@@H](C)C(=O)N[C@@H](CCCNC(=N)N)C(=O)O` has an EC50 of 0.0158 µM (C3ar1; cAMP response, agonist, GloSensor).
The EC50 of `CC(C)[C@H](NC(=O)[C@@H]1CSSC(C)(C)[C@H](NC(=O)[C@@H](N)CC(=O)O)C(=O)N[C@@H](Cc2ccccc2)C(=O)N[C@H](Cc2c[nH]c3ccccc23)C(=O)N[C@@H](CCCN)C(=O)N[C@@H](Cc2ccc(O)cc2)C(=O)N1)C(=O)O` is reported as 0.0063 ± 0.0017 µM (Urotensin-2 receptor (UTS2R, Homo sapiens, UniProt Q9UKP6); Gq activation, agonist, BRET2; HEK293; 10 min).
With `C[N+](C)(CCCN1c2ccccc2CCc2ccc(Cl)cc21)CC(=O)c1ccccc1` the IC50 was 64.3 µM (Uncharacterized protein; enzyme activity, inhibitor, coupled colorimetric; added: E. coli pyrophosphatase coupling).

Some of these lines once more:
`Cc1nn(-c2cccc(N)c2)c(=O)c2cnc(Nc3ccc(N4CCNCC4)cc3)nc12` gave an IC50 of over 10 µM (Proto-oncogene tyrosine-protein kinase Src, N1 isoform (SRC, Homo sapiens, UniProt P12931); inhibitor, SelectScreen kinase).
